Published values collected from several papers.
Each line is one published result; not all experiments were run side by side. ± marks the error that the study gave.

Compound	cell line	observed	method	time	notes	CC50 [µM]
CCOC(=O)c1cn(CC(c2c[nH]c3cc(Br)ccc23)c2c[nH]c3cc(Br)ccc23)c(C)c1C(=O)OC	DH82	cell growth or viability	MTS	72 h	–	11.1
COc1ccc(-n2c(SCCN3CCOCC3)nnc2[C@H](Cc2ccccc2)NC(=O)Cc2c(C)[nH]c3ccccc23)cc1	MT-4	–	–	–	–	81.9 ± 28.2
CCN(Cc1cccc(S(=O)(=O)O)c1)c1ccc(C(=C2C=CC(=[N+](CC)Cc3cccc(S(=O)(=O)[O-])c3)C=C2)c2ccccc2)cc1	U87.CD4.R5.X4	–	–	3 days	–	436 ± 32.6
OC[C@H]1O[C@@H](n2cnc3c(O)ncnc32)[C@H](F)[C@@H]1O	MOLT-4	cell growth or viability	SRB	11 days	–	> 250
COc1ccc(S(=O)(=O)O)cc1N=Nc1c(S(=O)(=O)O)cc2cc(NCc3nc(CNc4cc(C)c(N=Nc5cc(S(=O)(=O)O)cc6cc(S(=O)(=O)O)cc(O)c56)cc4OC)nc(Nc4ccccc4)n3)ccc2c1O	MT2	–	–	3 days	–	264 ± 29.3
Nc1ncnc2c1ncn2[C@@H]1O[C@H](CO)[C@@H](O)[C@H]1F	MOLT-4	–	sulforhodamine B	11 days	galactose medium	111
C=CCSc1nnc([C@H](Cc2ccccc2)NC(=O)Cc2c(C)[nH]c3ccccc23)n1-c1ccc(OC)cc1	MT-4	–	–	–	–	24.7 ± 0.75
O=c1ccn([C@@H]2O[C@H](CO)[C@@H](O)[C@H]2F)c(=O)[nH]1	MOLT-4	–	sulforhodamine B	11 days	galactose medium	> 250
COc1cc(/C=C/C(=O)N2CCN(c3ccccc3)CC2)ccc1O	L929	cell growth or viability	MTT	48 h	–	> 200
COc1ccc(-n2c(SCc3ccc(S(N)(=O)=O)cc3)nnc2[C@H](Cc2ccccc2)NC(=O)Cc2c(C)[nH]c3ccccc23)cc1	MT-4	–	–	–	–	> 187
Nc1ccn([C@@H]2O[C@H](CO)[C@@H](O)[C@H]2F)c(=O)n1	MOLT-4	–	sulforhodamine B	11 days	galactose medium	4.5
Cc1nc([C@@H](NC(=O)c2ccc(-c3ccc(Cl)cc3)[nH]2)[C@@H]2CCCCN2)sc1CO	U87/CD4/CCR5	cell growth or viability	XTT	–	–	~24
O=[N+]([O-])/C=C/c1ccc(Br)o1	KB	cell viability	alamarBlue	72 h	10% FCS	6 ± 2.6
COc1ccc(-c2cc(=O)c3c(O)c(OC)c(O)c(OC)c3o2)cc1O	MT2	cell growth or viability	ATP luminescence	48 h	–	~50
COc1ccc(-n2c(SCc3cccnc3)nnc2[C@H](Cc2ccccc2)NC(=O)Cc2c(C)[nH]c3ccccc23)cc1	MT-4	–	–	–	–	24.2 ± 2.28
C/C(=C\c1ccco1)[N+](=O)[O-]	KB	cell viability	alamarBlue	72 h	10% FCS	25.4 ± 3.8

Repeated from above:
Compound	cell line	observed	method	time	notes	CC50 [µM]
COc1cc(/C=C/C(=O)N2CCN(c3ccccc3)CC2)ccc1O	L929	cell growth or viability	MTT	48 h	–	> 200
COc1ccc(-n2c(SCc3cccnc3)nnc2[C@H](Cc2ccccc2)NC(=O)Cc2c(C)[nH]c3ccccc23)cc1	MT-4	–	–	–	–	24.2 ± 2.28
